Measured values of several laboratories.
Protocols differ between the studies behind these lines. Values joined by “and” are separate records of one study, mostly repeats; a detail may differ. ± marks the error that the study gave.

Compound | target or system | test | test system | conditions | how to read | quantity | value
CSCC[C@H](NC(=O)[C@@H](NC(=O)[C@H](CC(C)C)NC(=O)[C@@H](NC(=O)[C@H](Cc1c[nH]cn1)NC(=O)CCCCCNC(=O)[C@H](CCCNC(=N)N)NC(=O)[C@H](CCCNC(=N)N)NC(=O)[C@H](CCCNC(=N)N)NC(=O)[C@H](CCC(N)=O)NC(=O)[C@H](CCCNC(=N)N)NC(=O)[C@H](CCCNC(=N)N)NC(=O)[C@H](CCCCN)NC(=O)[C@H](CCCCN)NC(=O)[C@H](CCCNC(=N)N)NC(=O)CNC(=O)[C@@H](N)Cc1ccc(O)cc1)C(C)C)C(C)C)C(=O)N[C@@H](CS)C(=O)N[C@@H](C)C(=O)N[C@H](C(N)=O)[C@@H](C)O |  |  | C57BL/6J mice | Alzet osmotic pump, 3 mg/kg, 8 weeks |  | serum Globulin | 1.6 g/dL and 1.9 g/dL and 1.5 g/dL
CCCC[C@@H]1NC(=O)[C@H](Cc2ccc(O)cc2)NC(=O)[C@@H]2CCCN2C(=O)[C@H](CC(=O)O)NC(=O)[C@H](C)NC(=O)[C@H](Cc2ccccc2)NC(=O)[C@@H]2CSCCC(=O)N3CN(CN(C3)C(=O)CCSC[C@@H](C(=O)N[C@@H](C)C(N)=O)NC1=O)C(=O)CCSC[C@H](NC(C)=O)C(=O)N[C@@H](CC(C)(C)C)C(=O)N1CCC[C@H]1C(=O)N[C@@H](CCC(=O)O)C(=O)N[C@H](CCCCNC(=O)CCc1cn(CCOCCOCCOCCN(CCOCCOCCOCCC(=O)N[C@H]3CSCCC(=O)N4CN5CN(C4)C(=O)CCSC[C@H](NC(=O)[C@@H](CC(=O)O)NC(=O)[C@H](Cc4cccc6ccccc46)NC(=O)[C@@H]4CCCN4C3=O)C(=O)N[C@@H](CCSC)C(=O)N[C@@H](CCCCNC(=N)N)C(=O)N[C@@H](CC(=O)O)C(=O)N[C@@H](Cc3c[nH]c4ccccc34)C(=O)N[C@@H](CO)C(=O)N[C@@H]([C@@H](C)O)C(=O)N3CCC[C@H]3C(=O)N3C[C@H](O)C[C@H]3C(=O)N[C@@H](Cc3c[nH]c4ccccc34)C(=O)N[C@H](C(N)=O)CSCCC5=O)CCOCCOCCOCCn3cc(CCC(=O)NCCCC[C@H]4NC(=O)[C@H](CCC(=O)O)NC(=O)[C@@H]5CCCN5C(=O)[C@H](CC(C)(C)C)NC(=O)[C@@H](NC(C)=O)CSCCC(=O)N5CN6CN(C5)C(=O)CCSC[C@H](NC(=O)[C@H](Cc5ccc(O)cc5)NC(=O)[C@@H]5CCCN5C4=O)C(=O)N[C@@H](Cc4ccccc4)C(=O)N[C@@H](C)C(=O)N[C@@H](CC(=O)O)C(=O)N4CCC[C@H]4C(=O)N[C@@H](Cc4ccc(O)cc4)C(=O)N[C@@H](CCCC)C(=O)N[C@H](C(=O)N[C@@H](C)C(N)=O)CSCCC6=O)nn3)nn1)C(=O)N1CCC[C@H]1C(=O)N[C@@H](Cc1ccc(O)cc1)C(=O)N2 |  |  | CD-1 mouse |  |  | CL | 16 ± 5 mL/min/kg
N#[11C]c1ccc(-c2csc(NN=C3CCCC3)n2)cc1 |  |  | C57BL/6 mouse, male | intravenous, 3 MBq, 60 min |  | uptake in small intestine with contents | 26.4 ± 3.43 %ID/g
CC(C)C[C@H](NC(=O)CNC(=O)[C@H](CCC(N)=O)NC(=O)[C@H](CC(C)C)NC(=O)[C@H](CC(C)C)NC(=O)[C@H](CCCNC(=N)N)NC(=O)[C@H](CCC(N)=O)NC(=O)[C@H](CC(C)C)NC(=O)[C@H](CCCNC(=N)N)NC(=O)[C@H](C)NC(=O)CNC(=O)[C@H](CCC(=O)O)NC(=O)[C@H](CCCNC(=N)N)NC(=O)[C@H](CC(C)C)NC(=O)[C@H](CCCNC(=N)N)NC(=O)[C@H](CO)NC(=O)[C@H](CC(C)C)NC(=O)[C@H](CCC(=O)O)NC(=O)[C@H](CO)NC(=O)[C@@H](NC(=O)[C@H](Cc1ccccc1)NC(=O)[C@@H](NC(=O)CNC(=O)[C@H](CC(=O)O)NC(=O)C(C)(C)NC(=O)[C@@H](N)Cc1c[nH]cn1)[C@@H](C)O)[C@@H](C)O)C(=O)N[C@@H](CC(C)C)C(=O)N[C@@H](CCC(N)=O)C(=O)NCC(=O)N[C@@H](CC(C)C)C(=O)N[C@H](C(=O)NCC(=O)N[C@@H](CCCCNC(=O)COCCOCCNC(=O)COCCOCCNC(=O)CC[C@H](NC(=O)CCCCCCCCCCCCCCCCC(=O)O)C(=O)O)C(N)=O)C(C)C |  |  | DIO C57BL/6J mice | sc, 300 nmol/kg twice daily, 8 days, not significant |  | pancreas weight increase | 36%
COc1ccc(CNc2ccc3c(c2)S(=O)(=O)C=C3)cc1 |  |  | male C57BL/6 mice, blood | intraperitoneal, 10 mg/kg, day 8, group average |  | mean corpuscular haemoglobin concentration | 290 g/L
C=CC(=O)Nc1cccc(Cn2ncc3cnc(Nc4cnn(CCOC)c4)nc32)c1 |  |  | female Sprague-Dawley rat | oral, 180 mg/kg/day, day 28, 28-day subacute toxicity |  | serum TG | 0.53 ± 0.45 mM
Cc1ccc(OCCN(C)C)cc1C(=O)N[C@H](C)c1cc(-c2cnn(C(F)F)c2)nc2ccccc12 | Vero E6 |  |  | 3.906 µM |  | viability | 93.1% and 94.8%
CC[C@H](C)[C@H](NC(=O)[C@H](CCCNC(=N)N)NC(=O)[C@H](CCCCN)NC(=O)[C@H](Cc1ccc(O)cc1)NC(=O)[C@H](CC(=O)O)NC(=O)[C@H](C)NC(=O)CNC(=O)CCOCCOCCOCCNC(=O)CN1CCN(CC(=O)O)CCN(CC(=O)O)CCN(CC(=O)O)CC1)C(=O)N[C@H](C(=O)N[C@@H](CC(C)C)C(=O)N[C@@H](CCCCN)C(=O)N[C@H](C(=O)N[C@@H](CC(N)=O)C(N)=O)C(C)C)[C@@H](C)O [copper-64 labelled] |  | ex vivo gamma counting | male C57BL/6J mouse, B16-F10 tumour, intestinal lymph node | intravenous, 1.85 MBq, 100 min |  | tissue uptake | 0.404 ± 0.127 %ID/g
CC[C@H](C)[C@H](NC(=O)[C@H](CCCCN)NC(=O)CNC(=O)[C@H](CC(C)C)NC(=O)[C@H](Cc1ccccc1)NC(=O)[C@H](CCCCN)NC(=O)[C@H](CO)NC(=O)[C@H](Cc1ccccc1)NC(=O)[C@H](Cc1c[nH]c2ccccc12)NC(=O)[C@H](CCC(N)=O)NC(=O)[C@@H](NC(=O)[C@H](Cc1ccccc1)NC(=O)CCCCCNC(=O)CN1CCN(CC(=O)O)CCN(CC(=O)O)CCN(CC(=O)O)CC1)C(C)C)C(=O)N[C@@H](CCC(=O)O)C(=O)N1CCC[C@H]1C(=O)N[C@@H](CC(=O)O)C(=O)N[C@H](C(=O)N[C@@H](CO)C(=O)N[C@@H](CCC(N)=O)C(=O)N[C@H](C(=O)N[C@@H](CCC(N)=O)C(=O)N[C@@H](CC(=O)O)C(=O)N1CCC[C@H]1C(=O)N[C@@H](CC(N)=O)C(=O)N[C@@H](CC(=O)O)C(=O)N[C@@H](CCC(N)=O)C(=O)N[C@@H](Cc1ccc(O)cc1)C(=O)N[C@@H](CCC(=O)O)C(=O)N1CCC[C@H]1C(=O)N[C@@H](Cc1ccccc1)C(=O)O)C(C)C)C(C)C [copper-64 labelled] |  |  | C57BL/6 mice, male, tumour-free, spleen | 2 h |  | tissue uptake | 2.22 ± 0.3 %ID/g
Cc1ccc(OCC2CN(C)C2)cc1C(=O)N[C@H](C)c1cc(-c2cnn(C)c2)nc2ccccc12 | Vero E6 |  |  | 15.62 µM |  | viability | 94.5% and 97.1% and 98.6%
C[C@H](O)[C@@H](NC(=O)[C@H]1CCCN1C(=O)[C@@H](CCCCN)NC(=O)[C@@H](CO)NC(=O)[C@@H](Cc1ccc(O)cc1)NC(=O)[C@@H](CC(N)=O)NC(=O)CCOCCOCCOCCNC(=O)CN1CCN(CC(=O)O)CCN(CC(=O)O)CCN(CC(=O)O)CC1)C(=O)N[C@H](CC(=O)O)C(=O)N[C@H](CCCNC(=N)N)C(=O)N[C@H](CCC(N)=O)C(=O)N[C@H](Cc1ccc(O)cc1)C(=O)N[C@H](Cc1c[nH]cn1)C(=O)N[C@H](Cc1ccccc1)C(N)=O [gallium-68 labelled] |  |  | BALB/c nude mice U-87 MG tumour, bone | intravenous, 1.85 MBq, 0.08333 h, radiolabelled |  | tissue uptake | 2.18 ± 0.11 %ID/g
CSCC[C@H](N)C(=O)N[C@@H](C)C(=O)N[C@@H](Cc1c[nH]c2ccccc12)C(=O)N[C@@H](Cc1c[nH]cn1)C(=O)N[C@@H](CC(=O)O)C(=O)N[C@@H](CC(=O)O)C(=O)N[C@@H](CCC(=O)O)C(=O)N[C@@H](CCC(=O)O)C(=O)N[C@@H](Cc1ccccc1)C(=O)N[C@@H](C)C(=O)N[C@@H](CCCNC(=N)N)C(=O)N[C@@H](CCCNC(=N)N)C(=O)N[C@@H](CCCNC(=N)N)C(=O)N[C@@H](CCCNC(=N)N)C(=O)NCCCCCC(=O)NCCCCC(NC(=O)CCCCCNC(=O)[C@H](CCCNC(=N)N)NC(=O)[C@H](CCCNC(=N)N)NC(=O)[C@H](CCCNC(=N)N)NC(=O)[C@H](CCCNC(=N)N)NC(=O)[C@H](C)NC(=O)[C@H](Cc1ccccc1)NC(=O)[C@H](CCC(=O)O)NC(=O)[C@H](CCC(=O)O)NC(=O)[C@H](CC(=O)O)NC(=O)[C@H](CC(=O)O)NC(=O)[C@H](Cc1c[nH]cn1)NC(=O)[C@H](Cc1c[nH]c2ccccc12)NC(=O)[C@H](C)NC(=O)[C@@H](N)CCSC)C(=O)NCCCCC(NC(=O)C(CCCCNC(=O)CCCCCNC(=O)[C@H](CCCNC(=N)N)NC(=O)[C@H](CCCNC(=N)N)NC(=O)[C@H](CCCNC(=N)N)NC(=O)[C@H](CCCNC(=N)N)NC(=O)[C@H](C)NC(=O)[C@H](Cc1ccccc1)NC(=O)[C@H](CCC(=O)O)NC(=O)[C@H](CCC(=O)O)NC(=O)[C@H](CC(=O)O)NC(=O)[C@H](CC(=O)O)NC(=O)[C@H](Cc1c[nH]cn1)NC(=O)[C@H](Cc1c[nH]c2ccccc12)NC(=O)[C@H](C)NC(=O)[C@@H](N)CCSC)NC(=O)CCCCCNC(=O)[C@H](CCCNC(=N)N)NC(=O)[C@H](CCCNC(=N)N)NC(=O)[C@H](CCCNC(=N)N)NC(=O)[C@H](CCCNC(=N)N)NC(=O)[C@H](C)NC(=O)[C@H](Cc1ccccc1)NC(=O)[C@H](CCC(=O)O)NC(=O)[C@H](CCC(=O)O)NC(=O)[C@H](CC(=O)O)NC(=O)[C@H](CC(=O)O)NC(=O)[C@H](Cc1c[nH]cn1)NC(=O)[C@H](Cc1c[nH]c2ccccc12)NC(=O)[C@H](C)NC(=O)[C@@H](N)CCSC)C(N)=O (some centres unmarked) |  |  | C57BL/6 mouse female, heart | dose not given, 6 h | baseline: total | mean tissue distribution | 0.84%
O=C1NC2(CC2)COc2ncc(F)cc2[C@H]2COCCN2c2ccn3ncc1c3n2 |  |  | Sprague-Dawley rat, female, plasma | oral, 20 mg/kg/day, end of treatment, 4-week repeated-dose toxicity |  | prothrombin time | 8.3 ± 0.2 s
N=C(N)NCCC[C@@H](NC(=O)[C@H](N)Cc1c[nH]c2ccccc12)C(=O)N[C@H](CCCCN)C(=O)N[C@H](Cc1c[nH]c2ccccc12)C(=O)N[C@H](CCCNC(=N)N)C(=O)N[C@H](CCCCN)C(=O)N[C@H](Cc1c[nH]c2ccccc12)C(=O)N[C@H](CCCNC(=N)N)C(=O)N[C@H](CCCCN)C(=O)N[C@H](Cc1c[nH]c2ccccc12)C(=O)N[C@H](CCCNC(=N)N)C(=O)N[C@H](CCCCN)C(N)=O |  |  | mouse | intraperitoneal, 30 mg/kg single dose, day 2 |  | survival | 100%

Excerpt of the above:
Compound | target or system | test | test system | conditions | how to read | quantity | value
CSCC[C@H](NC(=O)[C@@H](NC(=O)[C@H](CC(C)C)NC(=O)[C@@H](NC(=O)[C@H](Cc1c[nH]cn1)NC(=O)CCCCCNC(=O)[C@H](CCCNC(=N)N)NC(=O)[C@H](CCCNC(=N)N)NC(=O)[C@H](CCCNC(=N)N)NC(=O)[C@H](CCC(N)=O)NC(=O)[C@H](CCCNC(=N)N)NC(=O)[C@H](CCCNC(=N)N)NC(=O)[C@H](CCCCN)NC(=O)[C@H](CCCCN)NC(=O)[C@H](CCCNC(=N)N)NC(=O)CNC(=O)[C@@H](N)Cc1ccc(O)cc1)C(C)C)C(C)C)C(=O)N[C@@H](CS)C(=O)N[C@@H](C)C(=O)N[C@H](C(N)=O)[C@@H](C)O |  |  | C57BL/6J mice | Alzet osmotic pump, 3 mg/kg, 8 weeks |  | serum Globulin | 1.6 g/dL and 1.9 g/dL and 1.5 g/dL
N#[11C]c1ccc(-c2csc(NN=C3CCCC3)n2)cc1 |  |  | C57BL/6 mouse, male | intravenous, 3 MBq, 60 min |  | uptake in small intestine with contents | 26.4 ± 3.43 %ID/g
